Measurements from different studies.
Protocols differ between the studies behind these lines. ± marks the error that the study gave.
KEAP1 Kelch domain: Kelch-like ECH-associated protein 1, Kelch domain (KEAP1, Homo sapiens, UniProt Q14145)
Sequence of UniProt Q14145 (whole entry, looked up): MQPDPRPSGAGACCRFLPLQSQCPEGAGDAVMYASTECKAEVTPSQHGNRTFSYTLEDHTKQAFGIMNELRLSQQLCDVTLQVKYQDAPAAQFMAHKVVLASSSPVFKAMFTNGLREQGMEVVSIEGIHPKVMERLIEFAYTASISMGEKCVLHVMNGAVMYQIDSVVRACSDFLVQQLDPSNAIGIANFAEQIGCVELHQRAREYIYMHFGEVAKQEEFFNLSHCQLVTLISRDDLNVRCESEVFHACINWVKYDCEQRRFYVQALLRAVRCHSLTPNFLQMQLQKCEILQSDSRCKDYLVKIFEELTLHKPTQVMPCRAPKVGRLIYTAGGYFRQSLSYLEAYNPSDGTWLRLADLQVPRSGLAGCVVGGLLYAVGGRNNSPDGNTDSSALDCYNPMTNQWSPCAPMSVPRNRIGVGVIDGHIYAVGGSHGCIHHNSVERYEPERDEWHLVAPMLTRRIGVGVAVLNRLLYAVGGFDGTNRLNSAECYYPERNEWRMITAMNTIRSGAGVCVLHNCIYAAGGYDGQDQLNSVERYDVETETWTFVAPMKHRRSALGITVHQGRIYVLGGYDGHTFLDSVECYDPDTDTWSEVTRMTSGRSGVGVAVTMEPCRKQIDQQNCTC
lecA: PA-I galactophilic lectin (lecA, Pseudomonas aeruginosa, UniProt Q05097)
Sequence of UniProt Q05097 (whole entry, looked up): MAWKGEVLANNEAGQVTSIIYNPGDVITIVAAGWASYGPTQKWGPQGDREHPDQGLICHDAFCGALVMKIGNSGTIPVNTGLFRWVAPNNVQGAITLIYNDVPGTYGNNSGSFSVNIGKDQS
Complement C3: Complement C3 (Homo sapiens, UniProt P01024)
Sequence of UniProt P01024 (whole entry, looked up): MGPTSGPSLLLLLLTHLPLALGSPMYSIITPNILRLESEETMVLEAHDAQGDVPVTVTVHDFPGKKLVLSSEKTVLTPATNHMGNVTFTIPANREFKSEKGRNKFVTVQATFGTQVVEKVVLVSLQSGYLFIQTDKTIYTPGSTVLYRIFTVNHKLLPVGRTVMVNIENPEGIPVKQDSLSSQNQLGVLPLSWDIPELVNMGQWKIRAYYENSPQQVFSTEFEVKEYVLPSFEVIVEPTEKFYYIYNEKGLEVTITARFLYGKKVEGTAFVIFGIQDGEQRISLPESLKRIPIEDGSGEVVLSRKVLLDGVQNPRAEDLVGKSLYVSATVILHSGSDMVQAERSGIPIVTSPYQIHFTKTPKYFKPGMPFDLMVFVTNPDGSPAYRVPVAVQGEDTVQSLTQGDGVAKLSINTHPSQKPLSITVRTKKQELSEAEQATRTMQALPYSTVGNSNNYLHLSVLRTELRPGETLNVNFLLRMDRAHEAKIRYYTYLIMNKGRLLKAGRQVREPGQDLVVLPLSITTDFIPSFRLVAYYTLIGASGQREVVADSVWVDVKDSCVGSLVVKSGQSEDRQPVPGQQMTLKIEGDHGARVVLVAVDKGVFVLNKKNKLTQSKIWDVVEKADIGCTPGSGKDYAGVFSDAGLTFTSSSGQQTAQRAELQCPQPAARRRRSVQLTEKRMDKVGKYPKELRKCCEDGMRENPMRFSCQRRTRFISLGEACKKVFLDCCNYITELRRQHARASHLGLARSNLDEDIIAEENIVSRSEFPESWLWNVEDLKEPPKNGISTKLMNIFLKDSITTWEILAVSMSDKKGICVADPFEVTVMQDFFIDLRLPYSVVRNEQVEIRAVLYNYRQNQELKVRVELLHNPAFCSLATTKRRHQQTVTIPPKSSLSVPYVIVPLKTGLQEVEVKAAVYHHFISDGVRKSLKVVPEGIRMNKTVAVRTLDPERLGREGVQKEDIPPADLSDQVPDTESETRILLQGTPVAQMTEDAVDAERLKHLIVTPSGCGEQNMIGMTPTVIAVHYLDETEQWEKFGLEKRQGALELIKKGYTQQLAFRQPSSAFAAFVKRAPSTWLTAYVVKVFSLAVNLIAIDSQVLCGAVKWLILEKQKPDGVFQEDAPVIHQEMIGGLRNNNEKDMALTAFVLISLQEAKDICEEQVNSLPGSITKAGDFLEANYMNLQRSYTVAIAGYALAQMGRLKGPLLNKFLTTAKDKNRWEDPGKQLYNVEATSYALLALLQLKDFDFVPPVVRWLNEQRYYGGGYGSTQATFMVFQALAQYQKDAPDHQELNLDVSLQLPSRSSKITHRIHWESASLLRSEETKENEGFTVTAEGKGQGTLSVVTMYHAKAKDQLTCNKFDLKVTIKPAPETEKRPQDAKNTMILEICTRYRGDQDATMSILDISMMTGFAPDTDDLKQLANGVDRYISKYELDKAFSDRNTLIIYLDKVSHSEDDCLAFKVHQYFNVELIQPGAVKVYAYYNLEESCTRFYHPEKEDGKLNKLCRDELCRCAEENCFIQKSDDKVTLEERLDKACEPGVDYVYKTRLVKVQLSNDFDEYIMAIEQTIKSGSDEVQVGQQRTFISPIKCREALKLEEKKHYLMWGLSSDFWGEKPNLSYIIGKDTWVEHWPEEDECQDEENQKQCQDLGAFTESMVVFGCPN
Sequence of UniProt O14786 (whole entry, unmodified, looked up): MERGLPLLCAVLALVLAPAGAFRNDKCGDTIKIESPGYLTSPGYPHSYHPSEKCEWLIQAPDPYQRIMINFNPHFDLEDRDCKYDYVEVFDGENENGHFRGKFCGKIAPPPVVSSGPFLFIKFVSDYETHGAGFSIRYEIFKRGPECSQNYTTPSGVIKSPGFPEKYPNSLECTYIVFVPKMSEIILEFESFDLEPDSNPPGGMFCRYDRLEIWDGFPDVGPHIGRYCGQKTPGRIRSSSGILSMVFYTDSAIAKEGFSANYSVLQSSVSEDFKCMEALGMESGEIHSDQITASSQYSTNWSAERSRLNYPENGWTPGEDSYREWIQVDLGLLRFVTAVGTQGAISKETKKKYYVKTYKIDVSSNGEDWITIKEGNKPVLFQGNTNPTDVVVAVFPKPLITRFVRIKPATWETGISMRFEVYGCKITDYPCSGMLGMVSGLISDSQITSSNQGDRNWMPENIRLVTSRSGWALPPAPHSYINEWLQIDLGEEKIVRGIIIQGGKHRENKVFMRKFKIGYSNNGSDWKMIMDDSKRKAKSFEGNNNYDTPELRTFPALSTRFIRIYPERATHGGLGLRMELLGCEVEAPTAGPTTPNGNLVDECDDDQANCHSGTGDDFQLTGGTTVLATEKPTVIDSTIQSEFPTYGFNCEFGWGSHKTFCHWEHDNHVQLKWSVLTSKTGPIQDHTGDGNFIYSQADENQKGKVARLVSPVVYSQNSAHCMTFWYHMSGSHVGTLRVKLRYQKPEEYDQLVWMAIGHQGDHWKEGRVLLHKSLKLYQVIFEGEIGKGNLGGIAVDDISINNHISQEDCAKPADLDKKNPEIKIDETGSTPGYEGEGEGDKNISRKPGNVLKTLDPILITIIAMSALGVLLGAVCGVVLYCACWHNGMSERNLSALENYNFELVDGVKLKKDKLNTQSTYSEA

CC[C@H](C)[C@H](NC(=O)[C@H](Cc1c[nH]cn1)NC(C)=O)C(=O)N[C@@H](CCCCN)C(=O)N[C@H](C(=O)N[C@@H](Cc1c[nH]cn1)C(=O)N[C@@H](CC(C)C)C(=O)N[C@@H](CC(=O)O)C(=O)N[C@@H](CCC(=O)O)C(=O)N[C@@H](CCC(=O)O)C(=O)N[C@H](C(=O)NCC(=O)N[C@@H](CCC(=O)O)C(=O)N[C@@H](CCCCN)C(=O)N[C@H](C(=O)N[C@@H](CO)C(=O)N[C@H](C(=O)N[C@H](C(=O)N[C@@H](CC(C)C)C(=O)N[C@@H](CC(=O)O)C(=O)N[C@H](C(N)=O)C(C)C)[C@@H](C)O)[C@@H](C)CC)[C@@H](C)O)[C@@H](C)O)[C@@H](C)O — ΔH (KEAP1 Kelch domain; isothermal titration calorimetry; Kelch domain; pH 7, 298.15 K): -19.29 ± 0.11 kcal/mol
O=C(COCCc1ccccc1)N[C@@H](Cc1cn(CCNC(=O)c2ccc(S[C@@H]3O[C@H](CO)[C@H](O)[C@H](O)[C@H]3O)cc2)nn1)C(=O)NCCO — ΔH (lecA; binding, isothermal titration calorimetry; 25 °C): -9.8 ± 0.263 kcal/mol
[N-]=[N+]=N[C@H]1[C@H](O)[C@@H](O)[C@H](n2cc(CO[C@@H]3O[C@H](CO)[C@H](O)[C@H](O)[C@H]3O)nn2)O[C@@H]1CO — ΔH (lecA; isothermal titration calorimetry; 25 °C): -11.6 ± 0.9 kcal/mol
CC(=O)N[C@@H](CO)C(=O)N[C@@H](CC(C)C)C(=O)N[C@@H](CCC(=O)O)C(=O)N[C@@H](CCC(=O)O)C(=O)N1CCC[C@H]1C(=O)N[C@@H](Cc1c[nH]cn1)C(=O)N[C@@H](COP(=O)(O)O)C(=O)N1CCC[C@H]1C(=O)N[C@@H](CCC(=O)O)C(=O)N[C@H](C(=O)NCC(=O)N[C@@H](CCC(=O)O)C(=O)N[C@@H](CCCCN)C(=O)N[C@H](C(=O)N[C@H](C(=O)N[C@@H](C)C(=O)NCC(=O)N[C@@H](CCC(=O)O)C(=O)N[C@H](C(=O)N[C@@H](CC(N)=O)C(N)=O)C(C)C)C(C)C)C(C)C)[C@@H](C)O — ΔH (KEAP1 Kelch domain; isothermal titration calorimetry; Kelch domain; pH 7, 298.15 K): -10.8 ± 0.14 kcal/mol
C#Cc1ccc(O[C@@H]2O[C@H](CO)[C@H](O)[C@H](O)[C@H]2O)cc1 — ΔH (lecA; ITC; 5% DMSO): -9.5 ± 0.6 kcal/mol
CC[C@H](C)[C@H](NC(C)=O)C(=O)N[C@H]1CSSC[C@@H](C(=O)N[C@H](C(N)=O)[C@@H](C)O)NC(=O)[C@H](CCCNC(=N)N)NC(=O)[C@H](Cc2c[nH]cn2)NC(=O)[C@H](C)NC(=O)CNC(=O)[C@H](Cc2c[nH]c3ccccc23)NC(=O)[C@H](CC(=O)O)NC(=O)[C@H](CCC(N)=O)NC(=O)[C@H](Cc2ccc(OC)cc2)NC(=O)[C@H](C(C)C)NC1=O — ΔH (Complement C3; ITC; pH 7.4, 25 °C): -18 kcal/mol
O=C(COCc1ccccc1)N[C@@H](Cc1cn(CCNC(=O)c2ccc(S[C@@H]3O[C@H](CO)[C@H](O)[C@H](O)[C@H]3O)cc2)nn1)C(=O)NCCO — ΔH (lecA; binding, isothermal titration calorimetry; 25 °C): -12 kcal/mol
N=C(N)NCCC[C@H](NC(=O)[C@H](CCCNC(=N)N)NC(=O)[C@H](CC(N)=O)NC(=O)[C@H](CCCNC(=N)N)NC(=O)[C@@H]1CCCN1C(=O)[C@H](CCCCN)NC(=O)[C@H](CCCCN)NC(=O)[C@H](CCC(N)=O)NC(=O)[C@H](CC(=O)O)NC(=O)[C@@H](N)Cc1c[nH]c2ccccc12)C(=O)O — ΔH (Neuropilin-1 (NRP1, Homo sapiens, UniProt O14786); binding, ITC; pH 7.4, 30 °C): -18.5 kcal/mol
O=C(COCCCCc1ccccc1)N[C@@H](Cc1cn(CCNC(=O)c2ccc(S[C@@H]3O[C@H](CO)[C@H](O)[C@H](O)[C@H]3O)cc2)nn1)C(=O)NCCO — ΔH (lecA; binding, isothermal titration calorimetry; 25 °C): -11.1 kcal/mol
COCCOCCOc1cc(-c2cn([C@H]3[C@H](O)[C@@H](O)[C@H](n4cc(-c5ccc(O[C@@H]6O[C@H](CO)[C@H](O)[C@H](O)[C@H]6O)cc5)nn4)O[C@@H]3CO)nn2)c(OCCOCCOC)cc1-c1cn([C@H]2[C@H](O)[C@@H](O)[C@H](n3cc(-c4ccc(O[C@@H]5O[C@H](CO)[C@H](O)[C@H](O)[C@H]5O)cc4)nn3)O[C@@H]2CO)nn1 — ΔH (lecA; ITC; 5% DMSO): -10.2 ± 0.5 kcal/mol
O=C(COc1ccccc1)N[C@@H](Cc1cn(CCNC(=O)c2ccc(S[C@@H]3O[C@H](CO)[C@H](O)[C@H](O)[C@H]3O)cc2)nn1)C(=O)NCCO — ΔH (lecA; binding, isothermal titration calorimetry; 25 °C): -11 ± 0.837 kcal/mol
OC[C@H]1O[C@@H](Oc2ccc(OCCc3cn([C@H]4[C@H](O)[C@@H](O)[C@H](c5cn([C@H]6[C@H](O)[C@@H](O)[C@H](n7cc(CCOc8ccc(O[C@@H]9O[C@H](CO)[C@H](O)[C@H](O)[C@H]9O)cc8)nn7)O[C@@H]6CO)nn5)O[C@@H]4CO)nn3)cc2)[C@H](O)[C@@H](O)[C@H]1O — ΔH (lecA; isothermal titration calorimetry; 25 °C): -16.1 ± 0.9 kcal/mol
O=C(COc1ccc(F)cc1)N[C@@H](Cc1cn(CCNC(=O)c2ccc(S[C@@H]3O[C@H](CO)[C@H](O)[C@H](O)[C@H]3O)cc2)nn1)C(=O)NCCO — ΔH (lecA; binding, isothermal titration calorimetry; 25 °C): -10.4 ± 0.478 kcal/mol
OC[C@H]1O[C@@H](Oc2ccc(OCc3cn([C@H]4[C@H](O)[C@@H](O)[C@H](c5cn([C@H]6[C@H](O)[C@@H](O)[C@H](n7cc(COc8ccc(O[C@@H]9O[C@H](CO)[C@H](O)[C@H](O)[C@H]9O)cc8)nn7)O[C@@H]6CO)nn5)O[C@@H]4CO)nn3)cc2)[C@H](O)[C@@H](O)[C@H]1O — ΔH (lecA; isothermal titration calorimetry; 25 °C): -15.2 ± 0.2 kcal/mol
CCOc1ccc(C[C@@H]2NC(=O)[C@H](C(C)C)NC(=O)[C@@H](NC(=O)[C@@H](NC(C)=O)[C@@H](C)CC)CSSC[C@@H](C(=O)N[C@H](C(N)=O)[C@@H](C)O)NC(=O)[C@H](CCCNC(=N)N)NC(=O)[C@H](Cc3c[nH]cn3)NC(=O)[C@H](C)NC(=O)CNC(=O)[C@H](Cc3c[nH]c4ccccc34)NC(=O)[C@H](CC(=O)O)NC(=O)[C@H](CCC(N)=O)NC2=O)cc1 — ΔH (Complement C3; ITC; pH 7.4, 25 °C): -16 kcal/mol

Some of these lines once more:
CC[C@H](C)[C@H](NC(C)=O)C(=O)N[C@H]1CSSC[C@@H](C(=O)N[C@H](C(N)=O)[C@@H](C)O)NC(=O)[C@H](CCCNC(=N)N)NC(=O)[C@H](Cc2c[nH]cn2)NC(=O)[C@H](C)NC(=O)CNC(=O)[C@H](Cc2c[nH]c3ccccc23)NC(=O)[C@H](CC(=O)O)NC(=O)[C@H](CCC(N)=O)NC(=O)[C@H](Cc2ccc(OC)cc2)NC(=O)[C@H](C(C)C)NC1=O — ΔH (Complement C3; ITC; pH 7.4, 25 °C): -18 kcal/mol
O=C(COCc1ccccc1)N[C@@H](Cc1cn(CCNC(=O)c2ccc(S[C@@H]3O[C@H](CO)[C@H](O)[C@H](O)[C@H]3O)cc2)nn1)C(=O)NCCO — ΔH (lecA; binding, isothermal titration calorimetry; 25 °C): -12 kcal/mol
